Published values collected from several papers.
Lines come from different studies, so protocols differ. Several values in a cell are separate wells, animals, samples, runs or records. ± gives the spread as reported.

Structure (SMILES)	tested on	assay	test system	conditions	how to read	quantity	value
COc1cc(O)ccc1CCC(c1ccc(O)cc1)c1cc2c(c(C)c1O)OC(c1ccc(O)cc1)CC2 (mixture of isomers)		measured: 12-HETE	human whole blood	30 µM, together with: Escherichia coli		amount	28700 ± 2840 pg/mL blood
CC(C)(C)NCC(SS(=O)(=O)O)c1ccccc1 (stereo not shown)			Schistosoma mansoni-infected mice	600 mg/kg single, day 1, perfusion day 44		liver weight	2.44 g
O=C([O-])CN1Cc2cccc(n2)CN(CC(=O)[O-])Cc2cccc(n2)C1.[Mn+2]		9.4 T T1-weighted MRI	mouse	intravenous, 80 µmol/kg	baseline: baseline	kidney signal enhancement	~1.75 fold
CC(CCC(=O)NCc1ccc(C(=O)NO)cc1)C1CCC2C3C(O)CC4CC(O)CCC4(C)C3CCC12C (stereo not shown)		measured: GCA	PCK rat (Pkhd1 mutant), portal blood	oral gavage, dose not given, 5 months	baseline: total bile acids	relative abundance	8.76%
COc1cc([C@H](O)[C@H](O)CO)ccc1O		ABTS scavenging				IC50	7.35 µg/mL
CN1CCC[C@]1(C)/C=C/S(=O)(=O)NC(=O)Nc1c2c(cc3c1CCC3)CCC2			human, whole blood ex vivo	12.5 mg twice daily, day 14, 24 h, multiple ascending dose, together with: LPS and ATP		IL-18 inhibition	-22.5%
CCCCCc1ccc(S(=O)(=O)N2CC2C(=O)OC)cc1 (stereo not shown)			mouse, Lewis lung carcinoma	intraperitoneal, 15 mg/kg, 16 doses, day 12		tumour growth inhibition	62%
COC1OC(C)C(OC2OC(C)C(O)C(OC3OC(C)C(OC4OC(C)C(O)C(OC5OC(C)C(OC6OC(C)C(O)C(OC7OC(C)C(OC8OC(C)C(O)C(OC9OC(C)C(OC%10OC(C)C(O)C(OS(=O)(=O)O)C%10OS(=O)(=O)O)C(OS(=O)(=O)O)C9OS(=O)(=O)O)C8OS(=O)(=O)O)C(OS(=O)(=O)O)C7OS(=O)(=O)O)C6OS(=O)(=O)O)C(OS(=O)(=O)O)C5OS(=O)(=O)O)C4OS(=O)(=O)O)C(OS(=O)(=O)O)C3OS(=O)(=O)O)C2OS(=O)(=O)O)C(OS(=O)(=O)O)C1OS(=O)(=O)O (stereo not shown)			human plasma	128 µg/mL	baseline: control	prothrombin time prolongation	0.98 fold
CN(C)c1ncnc2c1ncn2[C@@H]1O[C@H](CCl)[C@@H](NC(=O)[C@H](CSC23CC4CC(CC(C4)C2)C3)NC(=O)OC(C)(C)C)[C@H]1O		protein synthesis, measured: GFP	human cell-free translation	25 µM		inhibition	22.1%
C[n+]1ccc(/C=N/NC(=O)c2ccc3ccc4ccc(C(=O)N/N=C/c5cc[n+](C)c6ccccc56)nc4c3n2)c2ccccc21	hp2 hairpin duplex DNA	FRET melting		1 µM, together with: ds26 10 µM		ΔTm	0.3 ± 0.2 °C
COC1OC(C)C(O)C(OC2OC(C)C(O)C(OC3OC(C)C(O)C(OC4OC(C)C(O)C(OC5OC(C)C(O)C(OC6OC(C)C(O)C(OC7OC(C)C(O)C(OC8OC(C)C(O)C(OC9OC(C)C(O)C(OC%10OC(C)C(O)C(OS(=O)(=O)O)C%10OS(=O)(=O)O)C9OS(=O)(=O)O)C8OS(=O)(=O)O)C7OS(=O)(=O)O)C6OS(=O)(=O)O)C5OS(=O)(=O)O)C4OS(=O)(=O)O)C3OS(=O)(=O)O)C2OS(=O)(=O)O)C1OS(=O)(=O)O (stereo not shown)			human plasma	128 µg/mL	baseline: control	prothrombin time prolongation	0.98 fold
COc1cc2c(NC3CCN(C(C)C)CC3)cc(N3CCOCC3)nc2cc1OCCCN1CCCC1		TMT proteomics, measured: TPI1	5xFAD mice, hippocampus	dose not given	baseline: untreated 5xFAD mice	log2 fold change	0.0411
C[n+]1ccc(/C=N/NC(=O)c2ccc3ccc(C(=O)N/N=C/c4cc[n+](C)cc4)nc3n2)cc1	hp2 hairpin duplex DNA	FRET melting		1 µM, together with: ds26 10 µM		ΔTm	0.1 ± 0.2 °C
Oc1cc2c(cc1O)C(c1ccccc1)NCC2 (stereo not shown)		ABTS scavenging		10 min, dark		IC50	7.06 µM
CCCCC(CSS(=O)(=O)O)NCC(C)C (stereo not shown)			Swiss Webster mice, Schistosoma mansoni infected	100 mg/kg	baseline: vehicle control	liver weight decrease	19%
COc1ccc(C2NCCc3cc(O)c(O)cc32)cc1 (stereo not shown)		ABTS scavenging		10 min, dark		IC50	5.53 µM
COC1OC(C)C(OS(=O)(=O)O)C(OC2OC(C)C(OS(=O)(=O)O)C(OC3OC(C)C(OS(=O)(=O)O)C(OC4OC(C)C(OS(=O)(=O)O)C(OC5OC(C)C(OS(=O)(=O)O)C(OC6OC(C)C(OS(=O)(=O)O)C(OC7OC(C)C(OS(=O)(=O)O)C(OC8OC(C)C(OS(=O)(=O)O)C(OC9OC(C)C(OS(=O)(=O)O)C(OS(=O)(=O)O)C9O)C8O)C7O)C6O)C5O)C4O)C3O)C2O)C1O (stereo not shown)			human plasma	128 µg/mL		prothrombin time	15.3 ± 0.7 s
Cc1cnc2nc1Nc1cccc(c1)COC/C=C/COCc1cc(ccc1OCCN1CCOCC1)N2			BALB/c mice rhEPO-induced polycythemia	100 mg/kg		hematocrit	51.9% and 44.3% and 48.1% and 46.4% and 45.5% and 44.4%
COC1OC(C)C(OC2OC(C)C(O)C(OC3OC(C)C(OC4OC(C)C(O)C(OC5OC(C)C(OC6OC(C)C(O)C(OS(=O)(=O)O)C6OS(=O)(=O)O)C(OS(=O)(=O)O)C5OS(=O)(=O)O)C4OS(=O)(=O)O)C(OS(=O)(=O)O)C3OS(=O)(=O)O)C2OS(=O)(=O)O)C(OS(=O)(=O)O)C1OS(=O)(=O)O (stereo not shown)			human plasma	128 µg/mL	baseline: control	prothrombin time prolongation	0.99 fold
O=C(NS(=O)(=O)c1cccs1)c1cc2ccccc2n1Cc1ccc(Br)c2ccccc12			mouse, acute hyperuricaemia model, serum	oral, 2 mg/kg	baseline: vehicle model	serum uric acid decrease	93.4%
COC1OC(C)C(OC2OC(C)C(O)C(OC3OC(C)C(OC4OC(C)C(O)C(OC5OC(C)C(OC6OC(C)C(O)C(OC7OC(C)C(OC8OC(C)C(O)C(OC9OC(C)C(O)C(OS(=O)(=O)O)C9OS(=O)(=O)O)C8OS(=O)(=O)O)C(OS(=O)(=O)O)C7OS(=O)(=O)O)C6OS(=O)(=O)O)C(OS(=O)(=O)O)C5OS(=O)(=O)O)C4OS(=O)(=O)O)C(OS(=O)(=O)O)C3OS(=O)(=O)O)C2OS(=O)(=O)O)C(OS(=O)(=O)O)C1OS(=O)(=O)O (stereo not shown)			human plasma	128 µg/mL	baseline: control	prothrombin time prolongation	1.01 fold
CC(C)C[C@H](NC(=O)[C@H](CC(=O)O)NC(=O)CNC(=O)[C@@H](N)CCCNC(=N)N)C(=O)N[C@@H](C)C(=O)N[C@H](C(=O)N[C@@H](CC(C)C)C(=O)N[C@@H](CCCNC(=N)N)C(=O)N[C@@H](CCC(N)=O)C(=O)N[C@@H](CC(C)C)C(=O)N[C@@H](C)C(=O)N[C@@H](CCC(N)=O)C(=O)N[C@@H](CCC(=O)O)C(=O)N[C@@H](CC(=O)O)C(=O)NCC(=O)N[C@H](C(=O)N[C@H](C(=O)NCC(=O)N[C@H](C(=O)N[C@@H](CCCNC(=N)N)C(=O)NCCOCCOCCOCCOCCOCCOCCOCCOCCOCCOCCOCCOCCC(=O)N[C@@H](CS)C(N)=O)C(C)C)C(C)C)C(C)C)[C@@H](C)O		ex vivo NIR imaging	NOD/SCID mice, xenograft, H2009 xenograft	intravenous, 30 µg, 24 h	baseline: lung	fluorescence signal ratio	193 and 24 and 105
COC1OC(C)C(O)C(OC2OC(C)C(O)C(OC3OC(C)C(O)C(OC4OC(C)C(O)C(OC5OC(C)C(O)C(OC6OC(C)C(O)C(OC7OC(C)C(O)C(OC8OC(C)C(O)C(OC9OC(C)C(O)C(OS(=O)(=O)O)C9OS(=O)(=O)O)C8OS(=O)(=O)O)C7OS(=O)(=O)O)C6OS(=O)(=O)O)C5OS(=O)(=O)O)C4OS(=O)(=O)O)C3OS(=O)(=O)O)C2OS(=O)(=O)O)C1OS(=O)(=O)O (stereo not shown)			human plasma	128 µg/mL	baseline: control	prothrombin time prolongation	1 fold
COc1ccc2cc3[n+](cc2c1OCCCOC(=O)c1cscn1)CCc1cc2c(cc1-3)OCO2		ELISA	HFD-fed C57BL/6 mouse	dose not given		plasma PCSK9 level	decreased
COC1OC(C)C(OC2OC(C)C(OS(=O)(=O)O)C(OC3OC(C)C(OC4OC(C)C(OS(=O)(=O)O)C(OC5OC(C)C(OC6OC(C)C(OS(=O)(=O)O)C(OS(=O)(=O)O)C6OS(=O)(=O)O)C(OS(=O)(=O)O)C5OS(=O)(=O)O)C4OS(=O)(=O)O)C(OS(=O)(=O)O)C3OS(=O)(=O)O)C2OS(=O)(=O)O)C(OS(=O)(=O)O)C1OS(=O)(=O)O (stereo not shown)			human plasma	128 µg/mL	baseline: control	prothrombin time prolongation	1.03 fold
NC[C@@H](C(=O)Nc1ccc(-c2cn[nH]c2)cc1)c1ccccc1		tonometry	NZW rabbit, magnetic bead-induced ocular hypertension	ocular, 0.03%, 32 h		IOP	30.9 mmHg
COC1OC(C)C(OC2OC(C)C(OS(=O)(=O)O)C(OC3OC(C)C(OC4OC(C)C(OS(=O)(=O)O)C(OC5OC(C)C(OC6OC(C)C(OS(=O)(=O)O)C(OS(=O)(=O)O)C6O)C(OS(=O)(=O)O)C5O)C4O)C(OS(=O)(=O)O)C3O)C2O)C(OS(=O)(=O)O)C1O (stereo not shown)			human plasma	128 µg/mL	baseline: control	prothrombin time prolongation	1.04 fold
COC1CN([C@H]2CC[C@H]([C@@]3(C)Oc4c(Cl)cc(C(=O)NCc5c(SC)cc(C)[nH]c5=O)c(C)c4O3)CC2)C1		RNA-seq, measured: POLN mouse homolog	mouse, HT-1376 xenograft, whole blood	dose not given	baseline: vehicle	log2 fold change	0.516

Some of these lines once more:
Structure (SMILES)	tested on	assay	test system	conditions	how to read	quantity	value
NC[C@@H](C(=O)Nc1ccc(-c2cn[nH]c2)cc1)c1ccccc1		tonometry	NZW rabbit, magnetic bead-induced ocular hypertension	ocular, 0.03%, 32 h		IOP	30.9 mmHg
